{"data": "Measurements collected from several papers", "target": "Ephrin type-B receptor 2 (EPHB2, Homo sapiens, UniProt P29323)", "Sequence (P29323 19-1055, as in one of the studies)": "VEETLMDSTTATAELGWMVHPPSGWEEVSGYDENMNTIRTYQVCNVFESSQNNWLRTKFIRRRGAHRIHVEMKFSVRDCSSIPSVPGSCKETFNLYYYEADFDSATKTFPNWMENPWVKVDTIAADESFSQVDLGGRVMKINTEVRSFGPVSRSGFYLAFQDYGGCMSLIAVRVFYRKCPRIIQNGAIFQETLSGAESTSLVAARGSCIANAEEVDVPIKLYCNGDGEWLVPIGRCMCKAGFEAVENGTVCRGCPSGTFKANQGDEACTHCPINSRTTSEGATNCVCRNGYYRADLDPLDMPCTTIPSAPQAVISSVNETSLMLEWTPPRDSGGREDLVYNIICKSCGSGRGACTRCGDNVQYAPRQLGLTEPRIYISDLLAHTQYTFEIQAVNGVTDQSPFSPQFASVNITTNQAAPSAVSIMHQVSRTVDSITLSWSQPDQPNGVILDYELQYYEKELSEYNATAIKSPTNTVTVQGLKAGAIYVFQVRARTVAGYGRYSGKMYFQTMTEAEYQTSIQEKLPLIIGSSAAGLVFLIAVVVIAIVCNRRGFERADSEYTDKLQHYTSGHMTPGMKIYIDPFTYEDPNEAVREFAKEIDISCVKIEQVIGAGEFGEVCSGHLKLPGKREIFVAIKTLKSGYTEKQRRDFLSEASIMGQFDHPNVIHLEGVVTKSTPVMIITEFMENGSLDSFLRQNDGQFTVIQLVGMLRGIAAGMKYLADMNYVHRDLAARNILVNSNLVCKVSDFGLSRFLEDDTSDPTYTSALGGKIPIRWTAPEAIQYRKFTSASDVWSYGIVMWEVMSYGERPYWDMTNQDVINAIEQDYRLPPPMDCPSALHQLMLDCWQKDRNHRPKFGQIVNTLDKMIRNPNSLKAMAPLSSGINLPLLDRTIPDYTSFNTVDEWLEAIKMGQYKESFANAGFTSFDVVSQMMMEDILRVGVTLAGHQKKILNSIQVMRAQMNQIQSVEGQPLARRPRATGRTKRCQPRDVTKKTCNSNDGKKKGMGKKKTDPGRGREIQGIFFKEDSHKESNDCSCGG", "note": "Compare with care: the assays were run in different laboratories."}
{"Compound": "O=C1NC(=O)/C(=C/c2ccc(-c3ccc(F)cc3O)o2)S1", "assay": "enzyme activity", "setting": "10 µM", "quantity": "remaining activity", "value": "100%"}
{"Compound": "CNc1ncc2c(/C=C/C(=O)N3CCC(OC)CC3)nn(Cc3cccc(C(F)(F)F)c3)c2n1", "assay": "kinase activity, inhibitor", "setting": "1 µM", "scale": "baseline: untreated control", "quantity": "remaining activity", "value": "92%"}
{"Compound": "C=CC(=O)N1CCC(C(=O)NCC(=O)N2CCN(c3nc(-c4cnc(N)nc4C(F)F)nc(N4CCOCC4)n3)CC2)CC1", "assay": "KINOMEscan", "setting": "1 µM", "quantity": "remaining binding", "value": "95%"}
{"Compound": "C[C@@H](c1ccc(-n2cnc3c(N)ncnc32)cc1)N1CCc2nn(C)c(Cc3ccccc3)c2C1=O", "assay": "KINOMEscan", "setting": "0.1 µM", "scale": "baseline: DMSO control", "quantity": "remaining binding", "value": "95%"}
{"Compound": "CCN(CC)c1ccc(C2=NNC(=O)CC2C)cc1[N+](=O)[O-] (stereo not shown)", "assay": "enzyme activity, inhibitor", "setting": "10 µM", "scale": "baseline: vehicle", "quantity": "remaining activity", "value": "99%"}
{"Compound": "C1=C/COCc2cc(ccc2OCCN2CCCC2)Nc2nccc(n2)-c2cccc(c2)COC/1", "setting": "concentration not given", "quantity": "percent of control", "value": "88%"}
{"Compound": "CCCOc1ccc(OC)c(F)c1C(=O)c1ccc(C(=O)N[C@@H]2CNC[C@H]2NC(=O)c2ccc3[nH]ncc3c2)cc1", "assay": "enzyme activity", "setting": "10 µM", "quantity": "remaining activity", "value": "101%"}
{"Compound": "C=CC(=O)N1CCC(COCC(=O)N2CCN(c3nc(-c4cnc(N)nc4C(F)F)nc(N4CCOC[C@@H]4C)n3)CC2)CC1", "assay": "KINOMEscan", "setting": "1 µM", "scale": "baseline: DMSO control", "quantity": "remaining binding", "value": "94%"}
{"Compound": "COc1cc(F)ccc1-c1ncnc(Nc2cccc(C[S@](C)(=N)=O)c2)n1", "assay": "kinase activity", "setting": "10 µM, together with: 10 µM ATP", "quantity": "remaining activity", "value": "72%"}
{"Compound": "O=C(NC1CCC1)c1ccc2nc(-c3cccc(NS(=O)(=O)NCCN4CCCCC4)c3)cn2c1", "assay": "enzyme activity", "setting": "10 µM", "quantity": "remaining activity", "value": "100%"}
{"note": "Some of these lines once more:"}
{"Compound": "C=CC(=O)N1CCC(C(=O)NCC(=O)N2CCN(c3nc(-c4cnc(N)nc4C(F)F)nc(N4CCOCC4)n3)CC2)CC1", "assay": "KINOMEscan", "setting": "1 µM", "quantity": "remaining binding", "value": "95%"}
{"Compound": "CNc1ncc2c(/C=C/C(=O)N3CCC(OC)CC3)nn(Cc3cccc(C(F)(F)F)c3)c2n1", "assay": "kinase activity, inhibitor", "setting": "1 µM", "scale": "baseline: untreated control", "quantity": "remaining activity", "value": "92%"}
